# Experimental data of several laboratories.
# Protein sequences, listed by entry. Tags and fused reporters are not part of them. Residues count along the entry.
# UniProt Q2TR58, 19-280 limits assumed: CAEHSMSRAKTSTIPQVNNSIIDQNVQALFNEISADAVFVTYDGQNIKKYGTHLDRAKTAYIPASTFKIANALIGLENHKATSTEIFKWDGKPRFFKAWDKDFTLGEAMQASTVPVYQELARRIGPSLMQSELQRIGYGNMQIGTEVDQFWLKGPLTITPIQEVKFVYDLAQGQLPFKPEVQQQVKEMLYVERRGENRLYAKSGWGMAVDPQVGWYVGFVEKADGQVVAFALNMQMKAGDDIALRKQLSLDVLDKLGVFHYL
# UniProt Q9BY41, whole entry: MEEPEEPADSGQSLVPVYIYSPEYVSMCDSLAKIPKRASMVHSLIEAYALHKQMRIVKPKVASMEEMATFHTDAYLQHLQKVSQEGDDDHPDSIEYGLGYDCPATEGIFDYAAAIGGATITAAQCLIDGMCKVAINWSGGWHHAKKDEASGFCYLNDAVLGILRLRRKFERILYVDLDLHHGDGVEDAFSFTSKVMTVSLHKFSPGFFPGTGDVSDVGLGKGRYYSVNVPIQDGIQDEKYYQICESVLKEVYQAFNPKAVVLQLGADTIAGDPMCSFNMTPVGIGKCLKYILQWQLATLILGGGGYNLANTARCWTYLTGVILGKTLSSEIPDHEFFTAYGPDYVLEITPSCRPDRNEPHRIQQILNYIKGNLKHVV
# UniProt P25084, 1-173 limits assumed: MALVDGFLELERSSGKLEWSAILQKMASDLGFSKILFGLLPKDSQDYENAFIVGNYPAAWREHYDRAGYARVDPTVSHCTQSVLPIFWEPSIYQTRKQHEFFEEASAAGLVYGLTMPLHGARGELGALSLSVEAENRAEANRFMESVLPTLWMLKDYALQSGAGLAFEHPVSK
# UniProt P25084, whole entry: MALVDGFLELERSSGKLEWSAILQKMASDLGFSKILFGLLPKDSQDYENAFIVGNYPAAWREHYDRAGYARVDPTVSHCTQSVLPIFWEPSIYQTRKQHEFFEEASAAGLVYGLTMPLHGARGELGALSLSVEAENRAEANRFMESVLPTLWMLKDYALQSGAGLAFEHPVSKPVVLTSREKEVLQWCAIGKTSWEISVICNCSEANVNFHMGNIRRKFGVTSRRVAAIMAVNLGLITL
# UniProt P45983, 1-384 isoform 3: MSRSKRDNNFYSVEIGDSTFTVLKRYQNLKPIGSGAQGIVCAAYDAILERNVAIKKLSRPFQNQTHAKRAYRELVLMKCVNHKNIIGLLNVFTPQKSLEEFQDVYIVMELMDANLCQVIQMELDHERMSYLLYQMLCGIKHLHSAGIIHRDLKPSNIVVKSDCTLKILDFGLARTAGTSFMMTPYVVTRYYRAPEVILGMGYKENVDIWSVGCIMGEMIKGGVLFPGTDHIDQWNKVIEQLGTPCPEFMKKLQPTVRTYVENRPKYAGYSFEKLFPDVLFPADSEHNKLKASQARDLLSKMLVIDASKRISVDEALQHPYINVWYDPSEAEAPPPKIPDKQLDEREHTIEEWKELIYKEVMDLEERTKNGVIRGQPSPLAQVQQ
# UniProt P05067, whole entry, looked up: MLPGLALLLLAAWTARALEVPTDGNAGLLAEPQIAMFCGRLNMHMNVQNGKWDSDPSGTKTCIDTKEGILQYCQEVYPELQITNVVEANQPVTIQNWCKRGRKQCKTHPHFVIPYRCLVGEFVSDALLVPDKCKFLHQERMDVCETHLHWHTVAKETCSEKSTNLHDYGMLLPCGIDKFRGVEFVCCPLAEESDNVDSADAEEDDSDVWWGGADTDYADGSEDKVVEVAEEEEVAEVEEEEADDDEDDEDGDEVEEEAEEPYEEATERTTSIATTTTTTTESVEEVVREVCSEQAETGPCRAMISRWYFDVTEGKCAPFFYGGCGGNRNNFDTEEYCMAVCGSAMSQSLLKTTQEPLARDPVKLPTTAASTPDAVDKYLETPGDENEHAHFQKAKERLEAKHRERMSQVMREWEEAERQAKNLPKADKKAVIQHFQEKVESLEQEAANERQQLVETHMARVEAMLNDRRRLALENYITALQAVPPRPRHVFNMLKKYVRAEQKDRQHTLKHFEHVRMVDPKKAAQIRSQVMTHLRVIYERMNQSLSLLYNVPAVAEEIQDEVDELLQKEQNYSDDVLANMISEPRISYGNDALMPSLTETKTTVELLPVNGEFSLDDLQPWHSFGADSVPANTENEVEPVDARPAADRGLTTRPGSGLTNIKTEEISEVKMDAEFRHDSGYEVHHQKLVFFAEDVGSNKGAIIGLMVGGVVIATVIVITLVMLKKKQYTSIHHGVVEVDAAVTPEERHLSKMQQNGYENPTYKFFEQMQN
# UniProt P07550, whole entry: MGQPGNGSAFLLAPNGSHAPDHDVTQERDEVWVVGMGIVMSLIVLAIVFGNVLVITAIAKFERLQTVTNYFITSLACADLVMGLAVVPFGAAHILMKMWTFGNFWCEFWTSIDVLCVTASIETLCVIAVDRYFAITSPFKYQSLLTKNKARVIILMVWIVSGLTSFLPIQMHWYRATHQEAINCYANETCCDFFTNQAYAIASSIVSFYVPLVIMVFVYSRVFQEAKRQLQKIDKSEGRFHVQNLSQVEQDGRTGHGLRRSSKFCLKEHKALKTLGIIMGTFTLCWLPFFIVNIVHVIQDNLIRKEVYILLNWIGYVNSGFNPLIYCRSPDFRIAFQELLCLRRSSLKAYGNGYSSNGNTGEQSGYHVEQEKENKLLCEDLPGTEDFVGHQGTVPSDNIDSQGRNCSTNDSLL
# UniProt Q9Y3Z3, whole entry: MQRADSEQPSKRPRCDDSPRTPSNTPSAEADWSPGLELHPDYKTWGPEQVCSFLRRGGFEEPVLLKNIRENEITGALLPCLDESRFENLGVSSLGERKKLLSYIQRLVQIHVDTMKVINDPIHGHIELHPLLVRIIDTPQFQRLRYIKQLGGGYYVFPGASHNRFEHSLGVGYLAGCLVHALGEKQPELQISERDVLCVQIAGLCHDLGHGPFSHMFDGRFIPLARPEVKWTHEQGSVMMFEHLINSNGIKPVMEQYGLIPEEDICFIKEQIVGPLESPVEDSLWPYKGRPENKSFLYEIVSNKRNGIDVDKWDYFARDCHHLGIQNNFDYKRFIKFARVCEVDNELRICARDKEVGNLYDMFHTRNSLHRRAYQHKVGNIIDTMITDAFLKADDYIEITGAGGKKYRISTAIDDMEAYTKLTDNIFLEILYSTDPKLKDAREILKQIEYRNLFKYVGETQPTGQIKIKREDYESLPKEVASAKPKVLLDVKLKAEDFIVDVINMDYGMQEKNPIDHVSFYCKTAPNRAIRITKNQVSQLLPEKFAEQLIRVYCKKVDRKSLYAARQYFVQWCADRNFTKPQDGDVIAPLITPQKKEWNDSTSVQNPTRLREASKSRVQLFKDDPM
# UniProt Q5HH38, whole entry: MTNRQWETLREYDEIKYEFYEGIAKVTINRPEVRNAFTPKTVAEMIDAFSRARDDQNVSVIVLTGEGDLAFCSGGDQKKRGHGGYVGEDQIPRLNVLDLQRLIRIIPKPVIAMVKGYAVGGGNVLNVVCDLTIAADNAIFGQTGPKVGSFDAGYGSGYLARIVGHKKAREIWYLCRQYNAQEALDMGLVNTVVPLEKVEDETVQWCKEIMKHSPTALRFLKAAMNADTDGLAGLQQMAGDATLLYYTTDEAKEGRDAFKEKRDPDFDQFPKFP
# UniProt Q07440, whole entry P104K/C113S, looked up: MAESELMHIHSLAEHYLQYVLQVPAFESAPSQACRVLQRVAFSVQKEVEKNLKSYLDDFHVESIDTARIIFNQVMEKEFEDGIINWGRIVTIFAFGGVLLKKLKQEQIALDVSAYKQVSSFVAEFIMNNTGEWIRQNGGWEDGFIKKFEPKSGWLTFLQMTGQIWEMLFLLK
# UniProt C7C422, 36-270 M154L limits assumed: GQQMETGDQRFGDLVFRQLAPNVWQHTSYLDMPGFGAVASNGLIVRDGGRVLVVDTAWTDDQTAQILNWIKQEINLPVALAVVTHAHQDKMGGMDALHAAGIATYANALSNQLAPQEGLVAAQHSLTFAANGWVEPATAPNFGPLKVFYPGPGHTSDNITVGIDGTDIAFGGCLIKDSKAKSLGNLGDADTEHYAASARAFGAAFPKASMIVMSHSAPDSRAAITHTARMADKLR
# UniProt P54753, 633-896 limits assumed: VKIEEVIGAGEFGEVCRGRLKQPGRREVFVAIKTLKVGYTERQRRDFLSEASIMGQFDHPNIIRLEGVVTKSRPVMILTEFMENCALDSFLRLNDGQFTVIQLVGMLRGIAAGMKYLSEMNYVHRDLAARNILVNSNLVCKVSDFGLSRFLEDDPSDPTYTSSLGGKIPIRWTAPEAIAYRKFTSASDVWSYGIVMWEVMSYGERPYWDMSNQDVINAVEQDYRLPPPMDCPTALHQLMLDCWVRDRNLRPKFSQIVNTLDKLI
# UniProt P09958, 108-715 limits assumed: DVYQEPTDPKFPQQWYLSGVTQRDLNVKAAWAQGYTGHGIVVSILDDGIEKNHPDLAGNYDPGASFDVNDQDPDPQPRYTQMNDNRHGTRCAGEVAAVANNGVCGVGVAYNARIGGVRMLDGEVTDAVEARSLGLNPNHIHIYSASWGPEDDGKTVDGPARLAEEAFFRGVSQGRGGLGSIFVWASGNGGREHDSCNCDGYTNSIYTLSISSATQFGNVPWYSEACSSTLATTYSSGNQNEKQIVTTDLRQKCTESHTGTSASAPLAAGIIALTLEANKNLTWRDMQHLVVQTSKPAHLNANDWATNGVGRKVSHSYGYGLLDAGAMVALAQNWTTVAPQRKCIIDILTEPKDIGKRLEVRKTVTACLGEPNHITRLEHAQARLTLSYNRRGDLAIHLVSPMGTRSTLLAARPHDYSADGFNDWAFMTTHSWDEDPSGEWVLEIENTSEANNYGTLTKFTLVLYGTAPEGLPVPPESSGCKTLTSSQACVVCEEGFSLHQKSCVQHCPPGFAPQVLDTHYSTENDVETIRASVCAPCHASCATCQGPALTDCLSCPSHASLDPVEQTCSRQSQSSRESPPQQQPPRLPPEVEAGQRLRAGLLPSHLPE
# UniProt P17706, whole entry: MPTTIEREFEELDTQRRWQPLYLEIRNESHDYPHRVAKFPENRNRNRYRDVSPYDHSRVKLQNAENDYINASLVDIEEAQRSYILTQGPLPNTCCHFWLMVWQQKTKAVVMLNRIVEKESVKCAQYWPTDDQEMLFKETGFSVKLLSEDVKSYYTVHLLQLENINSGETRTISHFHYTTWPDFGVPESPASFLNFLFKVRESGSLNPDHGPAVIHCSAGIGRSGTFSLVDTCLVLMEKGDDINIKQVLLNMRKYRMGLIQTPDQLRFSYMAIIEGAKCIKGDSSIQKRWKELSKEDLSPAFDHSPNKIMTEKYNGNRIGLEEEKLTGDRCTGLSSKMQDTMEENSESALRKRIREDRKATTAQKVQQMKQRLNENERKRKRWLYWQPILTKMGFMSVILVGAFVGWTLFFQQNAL
# UniProt O00411, 42-1230 limits assumed: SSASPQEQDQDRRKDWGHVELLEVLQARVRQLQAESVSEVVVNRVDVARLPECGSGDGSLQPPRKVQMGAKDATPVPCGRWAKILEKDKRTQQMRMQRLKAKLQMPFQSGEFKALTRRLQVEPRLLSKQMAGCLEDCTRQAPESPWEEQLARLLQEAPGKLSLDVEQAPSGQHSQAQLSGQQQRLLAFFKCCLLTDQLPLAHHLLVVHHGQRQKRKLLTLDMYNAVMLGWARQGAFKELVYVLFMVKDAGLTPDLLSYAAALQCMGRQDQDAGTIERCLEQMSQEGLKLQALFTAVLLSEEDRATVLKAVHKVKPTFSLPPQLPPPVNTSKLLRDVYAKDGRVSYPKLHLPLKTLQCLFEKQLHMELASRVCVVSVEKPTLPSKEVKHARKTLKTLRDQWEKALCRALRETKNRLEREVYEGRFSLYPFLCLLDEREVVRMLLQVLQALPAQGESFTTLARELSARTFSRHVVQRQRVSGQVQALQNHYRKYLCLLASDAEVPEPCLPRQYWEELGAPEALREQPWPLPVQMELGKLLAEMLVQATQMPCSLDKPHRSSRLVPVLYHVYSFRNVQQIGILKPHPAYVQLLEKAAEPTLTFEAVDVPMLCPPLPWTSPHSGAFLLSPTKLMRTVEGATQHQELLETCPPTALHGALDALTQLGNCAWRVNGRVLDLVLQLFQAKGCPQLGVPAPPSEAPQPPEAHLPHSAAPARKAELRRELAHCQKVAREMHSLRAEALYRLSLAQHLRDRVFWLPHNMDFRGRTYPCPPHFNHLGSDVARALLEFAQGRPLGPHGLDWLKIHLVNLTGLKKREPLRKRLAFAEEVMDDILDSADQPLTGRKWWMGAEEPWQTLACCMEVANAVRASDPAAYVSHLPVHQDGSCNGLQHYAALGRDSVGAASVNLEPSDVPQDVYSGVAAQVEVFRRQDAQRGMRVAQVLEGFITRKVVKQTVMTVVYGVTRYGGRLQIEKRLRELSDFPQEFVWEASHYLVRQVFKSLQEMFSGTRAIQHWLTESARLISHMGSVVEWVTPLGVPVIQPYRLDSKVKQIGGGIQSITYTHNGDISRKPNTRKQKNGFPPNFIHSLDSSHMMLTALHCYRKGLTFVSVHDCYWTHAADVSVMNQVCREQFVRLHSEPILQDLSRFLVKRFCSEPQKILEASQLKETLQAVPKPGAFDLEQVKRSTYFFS
# Each line is one published result; not all experiments were run side by side. Numbers after ± are the reported error.
# OXA-58: Beta-lactamase OXA-58 (OXA-58, Acinetobacter baumannii, UniProt Q2TR58)
# HDAC8: Histone deacetylase 8 (HDAC8, Homo sapiens, UniProt Q9BY41)
# lasR: Transcriptional activator protein LasR (lasR, Pseudomonas aeruginosa, UniProt P25084)
# Orco: Orco (Drosophila melanogaster, UniProt Q9VNB5)
# MAPK8: Mitogen-activated protein kinase 8 (MAPK8, Homo sapiens, UniProt P45983)
SMILES,tested on,assay,system,setting,how to read,quantity,value
C[C@H](CS)C(=O)N[C@@H](Cc1c[nH]c2ccccc12)C(=O)O,Escherichia coli,,IMP-1 producing,"10 µM, together with: meropenem",,MIC of meropenem,32 mg/L
O=S(=O)(O)c1ccc(-c2ccc(S(=O)(=O)O)cc2)cc1,OXA-58,"enzyme activity, inhibitor",,,,ligand efficiency,0.44
CC(=O)NCCCC[C@H](NC(=O)CNC(=O)[C@H](CCCNC(=N)N)NC(C)=O)C(N)=O,HDAC8,"deacetylation, substrate",,"25 °C, together with: 150 nM enzyme",,kcat,0.09 ± 0.05 s⁻¹
NCCNCCSc1ccccc1,,spectrophotometry,,pH 5.2,,pKa,5.51
O=C(Oc1c(Br)cc(Br)cc1CNC(=O)c1ccccc1[N+](=O)[O-])c1ccccc1Cl,lasR,"thermal stability, differential scanning fluorimetry",,,,melting temperature,70.5 ± 0.3 °C
CC(C)c1ccc(NC(=O)CSc2nnc(-c3cccnc3)n2C2CC2)cc1,Orco,"calcium mobilization, agonist",HEK293 expressing Drosophila Orco,,relative to: VUAA1,efficacy,178%
C=CC(=O)Nc1cc(-n2c(=O)ccc3cnc4ccc(-c5cn[nH]c5)cc4c32)ccc1C,NB-4,cell growth,,72 h,,GI50,0.95 µM
CC(=O)NCCCC[C@H](NC(=O)[C@H](CCCCNC(C)=O)NC(=O)[C@H](Cc1c[nH]cn1)NC(=O)[C@H](CCCNC(=N)N)NC(C)=O)C(N)=O,HDAC8,"deacetylation, substrate",,"25 °C, together with: 150 nM enzyme",,kcat/KM,34 ± 4 M⁻¹ s⁻¹
Cc1nc2c[nH]c(/C=C/C=C/c3ccc(N(C)C)cc3)cn-2c1=O,"Amyloid-beta precursor protein, Aβ42 oligomers (APP, Homo sapiens, UniProt P05067)",oligomer detection,,amyloid-beta oligomers,relative to: ThT,signal enhancement relative to ThT,34.5 ± 2.7
COC(=O)[C@@]1(C)C=C(C(=O)Nc2ccc(C)c(C(=O)Nc3ccc(Nc4nccc(-c5cccnc5)n4)cc3)c2)C(=O)CC1,MAPK8,"kinase activity, inhibitor",,"44.44 µM, unit not given, together with: 10 mM GSH",relative to: DMSO,remaining activity,0.0209
COc1ccc(CN[C@@H]2CO[C@H](C(c3ccccc3)c3ccccc3)C[C@H]2O)cc1,"ADRB2 (Homo sapiens, UniProt P07550)","radioligand binding, radioligand displacement",,10 µM,,inhibition,-3.8%
C=CCN1CC[C@]23c4c5ccc(O)c4O[C@H]2[C@H](NC(=O)c2ccc(N=[N+]=[N-])c([125I])c2)CC[C@@]3(O)[C@H]1C5,"Oprm1 (Mus musculus, UniProt P42866)",binding,CHO cell membranes,"0.1 nM, 25 °C, together with: levallorphan 10 µM",,rapidly dissociating fraction,53%
CCn1c(SCC(=O)Nc2ccc(C(C)(C)C)cc2)nnc1-c1cccnc1,Orco,"calcium mobilization, agonist",HEK293 stably expressing Orco,,relative to: VUAA1,maximal efficacy,42%
Cc1ccc2nc(-c3ccc4nc(-c5ccc(NC(=O)c6cccc(Cl)c6)cc5)sc4c3)sc2c1S(=O)(=O)O,"Genome polyprotein, NS3 helicase domain (Hepatitis C virus genotype 1b, UniProt Q9WMX2)",malachite green,,concentration not given,,ATPase activity,inhibited
O=C(NC1CCN(c2ncnc3[nH]cnc23)CC1)c1cccc(NS(=O)(=O)c2ccc([N+](=O)[O-])cc2)c1,A549-ACE2,,,0.2743 µM,,viability,105%
"[11CH3]Nc1ccc(C(=O)C2CCN(C3Cc4ccccc4CC3O)CC2)cc1 (single isomer, unassigned)",,,"Sprague-Dawley rat, fat","intravenous, dose not given, 5 min",,radioactivity uptake,0.18 %ID/g
COc1cc(C(=O)N[C@@H]2CC[C@@]3(O)[C@H]4Cc5ccc(O)c6c5[C@@]3(CCN4CC3CC3)[C@H]2O6)ccn1,"Oprk1 (Mus musculus, UniProt P33534)",radioligand binding,CHO cell membranes,together with: [3H]diprenorphine,relative to: Ki mu receptor over Ki kappa receptor,selectivity ratio,1.3
Nc1nc2c(ncn2[C@H]2C[C@H](O)[C@@H](COP(=O)(O)OCCCNC(=O)c3cccc(-c4cccc(Br)c4)c3)O2)c(=O)[nH]1,"SAMHD1 (Homo sapiens, UniProt Q9Y3Z3)",differential scanning fluorimetry,,"50 µM, 3 µM apo protein",,delta Tm,6.1 °C
N=C(N)NCCC[C@H](NC(=O)c1ccccc1)C(=O)N[C@@H](CCCCN)C(=O)N[C@@H](C(N)=O)c1ccc(OCc2ccccc2)cc1,"Genome polyprotein, NS2B-NS3 protease (dengue virus type 2, UniProt P29990)",reporter gene,HeLa DENV2 protease reporter,12.5 µM,,inhibition,42.9 ± 7%
CC(C)(COP(=O)(O)OP(=O)(O)OC[C@H]1O[C@@H](n2cnc3c(N)ncnc32)[C@H](O)[C@@H]1OP(=O)(O)O)[C@@H](O)C(=O)NCCC(=O)NCCSC(CC(=O)c1ccc(Cl)cc1)C(=O)O (some centres unmarked),"1,4-dihydroxy-2-naphthoyl-CoA synthase (menB, Staphylococcus aureus, UniProt Q5HH38)",isothermal titration calorimetry,,,relative to: CoA binding,ΔΔG,5.44 kJ/mol
O=[N+]([O-])c1ccc(N=Nc2c(S(=O)(=O)O)cc3cc(S(=O)(=O)O)ccc3c2O)c([N+](=O)[O-])c1,"Bcl-2-related protein A1 (Mus musculus, UniProt Q07440, C113S/P104K)","binding, inhibitor, fluorescence polarization competition",,"100 µM, overnight, 20 °C, together with: FITC-Noxa peptide 375 nM",relative to: peptide without protein,Noxa peptide bound,46%
COC(=O)[C@@]1(C)C=C(C(=O)Nc2cc(C(=O)Nc3ccc(Nc4nccc(-c5cccnc5)n4)cc3)ccc2C)C(=O)CC1,MAPK8,"kinase activity, inhibitor",,"2.788e-05 µM, unit not given, together with: 10 mM GSH",relative to: DMSO,remaining activity,1.03
NC[C@@H](NC[C@@H]1CCCN1C[C@@H](CO)NC[C@@H](NCCc1ccc(-c2ccccc2)cc1)c1ccccc1)c1ccccc1,Klebsiella pneumoniae,bacterial growth,,"24 µM, fold shift of IC50, together with: amikacin",,potentiation of amikacin,2.2 fold
O=S(=O)(O)c1ccc2cc(S(=O)(=O)O)ccc2c1,OXA-58,"enzyme activity, inhibitor",,,,ligand efficiency,0.3
O=C(Oc1c(Br)cc(Br)cc1CNC(=O)c1ccccc1[N+](=O)[O-])c1ccc(Cl)cc1,lasR,"thermal stability, differential scanning fluorimetry",,,,melting temperature,66 °C
COC(=O)[C@@H](CS)N1C(=O)c2ccc(N(C)C)cc2C1=O,"blaNDM-1 (Klebsiella pneumoniae, UniProt C7C422, M154L)",probe,,"10 µM, NDM-4 variant, probe:enzyme 1:3, together with: ZnSO4 10 µM",relative to: probe alone,fluorescence increase,12 fold
O=C(NCc1cc(Br)cc(Br)c1OC(=O)c1ccccc1Cl)c1ccccc1Cl,lasR,"reporter gene, agonist",Escherichia coli JLD271 lasI-lacZ reporter,,relative to: OdDHL,maximum efficacy,98%
O=C(CCl)c1ccc2c(Nc3ccccc3)ncnc2c1,"EPHB3 (Homo sapiens, UniProt P54753)",ESI-MS,,covalent adduct,,protein mass increase,259 Da
Cc1ccccc1S(=O)(=O)Nc1cccc(C(=O)NC2CCN(c3ncnc4[nH]cnc34)CC2)c1,A549-ACE2,,,66.67 µM,,viability,90.4%
CC[C@H](C)[C@H](NC(=O)[C@H](C)NC(=O)[C@H](CCC(=O)O)NC(=O)[C@H](CCCNC(=N)N)NC(=O)[C@H](CCCNC(=N)N)NC(=O)[C@@H](NC(=O)[C@H](CCCNC(=N)N)NC(=O)[C@H](CCCNC(=N)N)NC(=O)CNC(=O)c1ccccc1N)[C@@H](C)O)C(=O)N[C@H](C(=O)N[C@@H](CCC(N)=O)C(=O)NCCNc1ccc([N+](=O)[O-])cc1[N+](=O)[O-])C(C)C,"Furin (FURIN, Homo sapiens, UniProt P09958)",substrate,,pH 7,,Km,0.21 µM
CC(C)C[C@@H](NC(=O)[C@H](NC(=O)[C@H]1CCCN1)[C@H](C)O)C(=O)N[C@H](Cc1c[nH]cn1)C(=O)N[C@@H](C(=O)N[C@H](Cc1c[nH]cn1)C(=O)N[C@H](CC(N)=O)C(=O)N[C@H](CCCNC(=N)N)C(=O)N[C@H](CCCNC(=N)N)C(=O)N[C@H](CCCNC(=N)N)C(=O)N[C@H](CCCNC(=N)N)C(=O)N[C@H](CCCNC(=N)N)C(N)=O)[C@H](C)O,,,"healthy human, plasma",2 320 mg daily,relative to: Css over C24h day 1,accumulation ratio,3
CC(=O)N[C@H](C(=O)N[C@@H](Cc1ccccc1)C(=O)N[C@@H](CC(=O)O)C(=O)N[C@@H](CCC(N)=O)C(=O)N[C@@H](Cc1cc(=O)oc2cc(OP(=O)(O)O)ccc12)C(=O)N[C@@H](Cc1c[nH]cn1)C(=O)N[C@@H](CCC(=O)O)C(=O)N[C@@H](CO)C(=O)N1CCC[C@H]1C(N)=O)C(C)C,"PTPN2 (Homo sapiens, UniProt P17706)","peptide hydrolysis, substrate",,,,kcat,11.5 ± 0.5 s⁻¹
O=C(Oc1c(Br)cc(Br)cc1CNC(=O)c1ccccc1[N+](=O)[O-])c1ccc(Br)cc1,lasR,"thermal stability, differential scanning fluorimetry",,,,melting temperature,65.9 ± 0.5 °C
CC(=O)NCCCC[C@H](NC(=O)CNC(=O)[C@H](CCCNC(=N)N)NC(C)=O)C(=O)N[C@@H](Cc1c[nH]c2ccccc12)C(N)=O,HDAC8,"deacetylation, substrate",,"25 °C, together with: 150 nM enzyme",,kcat,0.041 ± 0.014 s⁻¹
CN1CC[C@]23c4c5ccc(O)c4O[C@H]2c2ncc(-c4ccc(Cl)cc4)cc2C[C@@]3(OCCCc2ccccc2)[C@H]1C5,,tolerance,"CD-1 mouse, HIV neuropathy","sc, 1 mg/kg twice daily, 3 days",,days to zero efficacy,2.1 days
NC[C@@H](NC[C@@H]1CCCN1C[C@@H](CO)NC[C@@H](NCCC12CC3CC(CC(C3)C1)C2)c1ccccc1)c1ccccc1,Klebsiella pneumoniae,bacterial growth,,"16 µM, fold shift of IC50, together with: amikacin",,potentiation of amikacin,2.5 fold
O=C(Cc1cccs1)NC(B(O)O)c1cccc(C(=O)O)c1 (centres unmarked),"ADC-7 beta-lactamase (Acinetobacter baumannii, UniProt Q6DRA1)",ESI-MS intact protein,,"15 min, together with: enzyme 14 µM",relative to: free β-lactamase,mass shift,0 Da
O=c1ccn([C@@H]2O[C@H](COP(=O)(O)OP(=O)(O)OP(=O)(O)O)[C@@H](O)[C@]2(F)Br)c(=O)[nH]1,"POLRMT (Homo sapiens, UniProt O00411)",substrate,,"100 µM, 2 h",relative to: natural rNTP,incorporation,7.4%

# Some of these lines once more:
SMILES,tested on,assay,system,setting,how to read,quantity,value
CCn1c(SCC(=O)Nc2ccc(C(C)(C)C)cc2)nnc1-c1cccnc1,Orco,"calcium mobilization, agonist",HEK293 stably expressing Orco,,relative to: VUAA1,maximal efficacy,42%
Cc1ccc2nc(-c3ccc4nc(-c5ccc(NC(=O)c6cccc(Cl)c6)cc5)sc4c3)sc2c1S(=O)(=O)O,"Genome polyprotein, NS3 helicase domain (Hepatitis C virus genotype 1b, UniProt Q9WMX2)",malachite green,,concentration not given,,ATPase activity,inhibited
O=C(NC1CCN(c2ncnc3[nH]cnc23)CC1)c1cccc(NS(=O)(=O)c2ccc([N+](=O)[O-])cc2)c1,A549-ACE2,,,0.2743 µM,,viability,105%
"[11CH3]Nc1ccc(C(=O)C2CCN(C3Cc4ccccc4CC3O)CC2)cc1 (single isomer, unassigned)",,,"Sprague-Dawley rat, fat","intravenous, dose not given, 5 min",,radioactivity uptake,0.18 %ID/g
